{"data": "Measurements from different studies", "note": "Numbered parts are unrelated; each lists some results of a single study. Positions count from the first letter of the parent shown."}
{"data": "Study 1", "target": "CCNA2, cyclin fold, Cln2 fusion (human)", "method": "yeast growth competition, sequencing", "matrix": "yeast", "setting": "strong parent motif", "relative to": "not given", "reading": "higher = stronger binding", "parent": "CDKN1A docking peptide (human); SKACRRLFGPVDS"}
{"Variant": "K2W", "normalised enrichment score": 3.08}
{"Variant": "G9C", "normalised enrichment score": 5.4}
{"Variant": "V11M", "normalised enrichment score": 5.58}
{"Variant": "V11C", "normalised enrichment score": 5.68}
{"Variant": "R5Q", "normalised enrichment score": 2.09}
{"Variant": "R5M", "normalised enrichment score": 1.55}
{"Variant": "V11I", "normalised enrichment score": 5.89}
{"Variant": "K2S", "normalised enrichment score": 5.35}
{"Variant": "L7H", "normalised enrichment score": 0.578}
{"Variant": "R5H", "normalised enrichment score": 0.779}
{"Variant": "K2Y", "normalised enrichment score": 4.21}
{"Variant": "F8S", "normalised enrichment score": 0.0111}
{"Variant": "R6V", "normalised enrichment score": 4.56}
{"Variant": "R6C", "normalised enrichment score": 4.9}
{"data": "Study 2", "target": "RING finger protein unkempt homolog, zinc fingers 1-6, GST-SBP tag (UNK, Homo sapiens, UniProt Q9C0B0, residues 30-357)", "method": "RNA Bind-n-Seq", "molecule type": "RNA", "matrix": "in vitro", "tested at": "not given", "setting": "RNA with constant flanks, human and mouse sites, ends assumed", "relative to": "input RNA pool", "reading": "higher = stronger binding", "all sequences stand within": "GGGAGUUCUACAGUCCGACGAUC … CAACAGAGGAUUGAGCAUCA", "chain of UniProt Q9C0B0 (30-357, looked up)": "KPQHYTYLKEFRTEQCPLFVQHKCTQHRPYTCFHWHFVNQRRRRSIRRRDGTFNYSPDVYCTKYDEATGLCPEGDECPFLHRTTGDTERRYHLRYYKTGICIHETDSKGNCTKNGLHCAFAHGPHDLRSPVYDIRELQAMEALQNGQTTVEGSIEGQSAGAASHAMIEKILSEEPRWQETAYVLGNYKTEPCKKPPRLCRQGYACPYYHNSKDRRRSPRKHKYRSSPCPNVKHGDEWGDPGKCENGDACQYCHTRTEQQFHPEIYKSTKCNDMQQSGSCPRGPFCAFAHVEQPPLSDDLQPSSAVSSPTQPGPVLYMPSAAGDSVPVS"}
{"Oligonucleotide": "ACCAUUCGGGAAAACAAUAAAAUUAAUAGAGUCAAUGAACUGAAUUCUGUAAAAGAAGUGGCUUUGGGUAGAAGCUUGGAUAACAAAGGAGACACUGAUGGAGAGGAUCAGGUUUGUGUU", "bound/input enrichment [ratio]": 2.64}
{"Oligonucleotide": "ACAGCUCUCAUUCAAAGGAACUAGAAGCCUCUCCCUCAGUGGUAGGGAGACAGCCAGGAGCGGUUUUCUGGGAACUGUGGGAUGUGCCCUUGGGGGCCCGAGAAAACAGAAGGAAGAUGC", "bound/input enrichment [ratio]": 0.375}
{"Oligonucleotide": "GGUAGACCAGAAACCACAAAUUGACUUUUUUUCUUAGAAAAUAUUUCUAUUUGCGGUAAAUAUAGUAAUAUGUAAAUAAUGUACAUCUGUUGAUUUCUGGAGUGUCUGUUAUUCAAUGAU", "bound/input enrichment [ratio]": 54.8}
{"Oligonucleotide": "UUGAAUGGUUUGGAAUAUGUGCCACAAAGACUGAAAAAUCUUAAUGAAAUUAAUAAGCUGCUAGCACAUCGACCUUGGCUGAUCACAAAAGAGCACAUUCAGAAACUUGUCAAAACUGGA", "bound/input enrichment [ratio]": 0.3}
{"Oligonucleotide": "UGGCAUCUCUUUCCUCCUGAAGAUACUCCUUUCCUUUAUCCAACUAGAAUCCCUUAUGAAGAAUCUAGUGUGUUCAGUAAAAUCAAUGUUGUCAAUCCUGAUUUAAAGCGUUUUCCUCAG", "bound/input enrichment [ratio]": 0.519}
{"Oligonucleotide": "UUCUUUUCUGAAACCUUGUUUAACUGCCUUGCUUAUGGACCAGAAAAUACUCUACCAACUUUGGAUGAUGUAUCAGACAUUGAUGUUGCACAGAUUAUAAUCAAGAUAGAUUCUGCAACU", "bound/input enrichment [ratio]": 0.18}
{"Oligonucleotide": "GUGUUGCUGGACCUUCAGAGUUACGACAGUGAUGUGCAAGGCAAACAAGAAACUGACAGCCUUUUGAACAAAAUAGAAGAAAAAAUGAAAGAAUUGAGUCAAGACAGUACUGGGCGGGUG", "bound/input enrichment [ratio]": 2.09}
{"Oligonucleotide": "CCCAGCCCAGCCCAGUCCGCCCGCCCGCCCGCCGGCCCGCCGGCCGCGAGCGCCGCCGCCGCCGCCGCCGCCACCUCCCCCGCCGCUGGGGACAUGUCUAACCCCGGAGGCCGGAGGAAC", "bound/input enrichment [ratio]": 1.32}
{"Oligonucleotide": "AAAGAAAAUCCAGUUAUGGCAGAACCCCCAGUUAUAAAUGAGGAGUGCAGUUUGAAAUGCUGCUCUUCUGAUACCAAAGGCUCUCCUUUGGCCAGCAUUUCUAAAAGUGGGAAAGUGGAU", "bound/input enrichment [ratio]": 0.125}
{"Oligonucleotide": "CUGGGACCUGAAGGACUUGAACUUAUUGAGAAACUCCUCCAGAACAGAAUUACAAUUGUGGAUAGAUUUCUUAAUUCUUCAAAUGAUCAUAGGUUUCAGGCUCUUCAAGACAAUUGUAAA", "bound/input enrichment [ratio]": 0.257}
{"Oligonucleotide": "AUUAUGAAAACAAAGAAGUGGGCAGUAGAGCGAACACGAACCAUCCAAGGACUCAUUGACUUCAUCAAAAAGUUUCUUAAACUUGUGGCCUCAGAACAGUUGUUUAUUUAUGUGAAUCAG", "bound/input enrichment [ratio]": 0.198}
{"data": "Study 3", "target": "PABPC1L2, full length, GST fusion (mouse, UniProt A0ABA7IW68)", "method": "RNAcompete", "molecule type": "RNA", "matrix": "in vitro", "tested at": "20 nM", "setting": "7-mer, probes averaged, single round", "relative to": "mean of 7-mers", "reading": "higher = stronger binding", "Residues (chain)": "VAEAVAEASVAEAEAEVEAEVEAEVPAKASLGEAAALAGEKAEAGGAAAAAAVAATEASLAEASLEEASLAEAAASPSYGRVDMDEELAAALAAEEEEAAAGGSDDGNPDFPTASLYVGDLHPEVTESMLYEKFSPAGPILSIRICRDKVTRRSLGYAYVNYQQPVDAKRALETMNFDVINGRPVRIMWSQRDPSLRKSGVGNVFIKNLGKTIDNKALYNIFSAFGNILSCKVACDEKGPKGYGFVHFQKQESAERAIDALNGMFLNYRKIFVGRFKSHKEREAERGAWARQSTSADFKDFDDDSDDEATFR"}
{"Oligonucleotide": "CUUCCAG", "7-mer Z-score": -0.322}
{"Oligonucleotide": "CAGAUUG", "7-mer Z-score": -0.142}
{"Oligonucleotide": "AUAACUA", "7-mer Z-score": 0.187}
{"Oligonucleotide": "CUCAUCA", "7-mer Z-score": -0.338}
{"Oligonucleotide": "GUUCAUU", "7-mer Z-score": -0.226}
{"Oligonucleotide": "CGCAGCG", "7-mer Z-score": -0.0591}
{"Oligonucleotide": "GAUCCCG", "7-mer Z-score": -0.226}
{"Oligonucleotide": "AAGGCCU", "7-mer Z-score": -0.0844}
{"Oligonucleotide": "CGGCUUC", "7-mer Z-score": -0.142}
{"Oligonucleotide": "UUAACUG", "7-mer Z-score": -0.273}
{"Oligonucleotide": "AACGGCG", "7-mer Z-score": 0.224}
{"Oligonucleotide": "CUCUUAG", "7-mer Z-score": -0.36}
{"Oligonucleotide": "AAGACCC", "7-mer Z-score": 0.0895}
{"Oligonucleotide": "AUCAAUU", "7-mer Z-score": -0.0518}
{"Oligonucleotide": "UUUCAUU", "7-mer Z-score": -0.371}
{"Oligonucleotide": "GAAGAAA", "7-mer Z-score": 1.36}
{"Oligonucleotide": "UUCGUGC", "7-mer Z-score": -0.338}
{"Oligonucleotide": "ACUCAGA", "7-mer Z-score": 0.046}
{"Oligonucleotide": "CACGGCU", "7-mer Z-score": -0.226}
{"Oligonucleotide": "AUUAGUA", "7-mer Z-score": -0.0482}
{"Oligonucleotide": "CUAGUCG", "7-mer Z-score": -0.354}
{"Oligonucleotide": "CUACAUG", "7-mer Z-score": -0.13}
{"Oligonucleotide": "CACCUCU", "7-mer Z-score": -0.354}
{"Oligonucleotide": "UUUUUAG", "7-mer Z-score": 0.0261}
{"Oligonucleotide": "CGGCAAU", "7-mer Z-score": -0.117}
{"data": "Study 4", "target": "UBE2H UBC core domain (UniProt P62256)", "method": "yeast two-hybrid", "matrix": "yeast", "setting": "mostly zero background", "relative to": "not given", "reading": "higher = stronger interaction", "B1": "TRIM5 RING domain (UniProt Q9C035); chain ILVNVKEEVTCPICLELLTQPLSLDCGHSFCQACLTANHKKSMLDKGESSCPVCRISYQPENIRP", "B2": "TRIM5 RING domain (UniProt Q9C035); chain LREVKLSPEGQKVDHCARHGEKLLLFCQEDGKVICWLCERSQEHRGHHTFLTEEVAREYQVKL", "B3": "TRIM4 RING domain (UniProt Q9C037); chain EAEDIQEELTCPICLDYFQDPVSIECGHNFCRGCLHRNWAPGGGPFPCPECRHPSAPAALRP", "B4": "VPS41 RING domain (UniProt P49754); chain KGVLVDEENICESCLSPILPSDAAKPFSVVVFHCRHMFHKECLPMPSMNSAAQFCNICSAKNRGPGSAI", "B5": "TRAF5 RING domain (UniProt O00463); chain FVERLEERYKCAFCHSVLHNPHQTGCGHRFCQHCILSLRELNTVPICPVDKEVIKSQEVFK", "B6": "TRIML1 RING domain (UniProt Q8N9V2); chain LMENLREELTCFICLDYFSSPVTTECGHSFCLVCLLRSWEEHNTPLSCPECWRTLEGPHFQS", "B7": "SH3RF2 RING domain (UniProt Q8TEC5); chain DDLTLLDLLECPVCFEKLDVTAKVLPCQHTFCKPCLQRVFKAHKELRCPECRTPVFSNIEAL", "B8": "RNF208 RING domain (UniProt Q9H0X6); chain SSAAAGEPLECPTCGHSYNVTQRRPRVLSCLHSVCEQCLQILYESCPKYKFISCPTCRRETVLFTDYG", "B9": "RC3H1 RING domain (UniProt Q5TC82); chain QAPQWTDFLSCPICTQTFDETIRKPISLGCGHTVCKMCLNKLHRKACPFDQTTINTDIELL", "B10": "NEURL1 RING domain (UniProt O76050); chain VTPGLGQWSDECTICYEHAVDTVIYTCGHMCLCYACGLRLKKALHACCPICRRPIKDIIKT", "chain of UniProt P62256 (whole entry, looked up)": "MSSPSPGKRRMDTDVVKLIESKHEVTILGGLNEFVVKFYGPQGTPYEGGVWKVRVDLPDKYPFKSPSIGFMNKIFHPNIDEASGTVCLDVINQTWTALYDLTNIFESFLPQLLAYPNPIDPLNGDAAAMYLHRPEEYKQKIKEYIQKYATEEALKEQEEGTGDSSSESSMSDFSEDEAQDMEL"}
{"Sequence": "B1 (TRIM5 RING domain)", "lacZ reporter activity": 0}
{"Sequence": "B2 (TRIM5 RING domain)", "lacZ reporter activity": 0}
{"Sequence": "B3 (TRIM4 RING domain)", "lacZ reporter activity": 0}
{"Sequence": "B4 (VPS41 RING domain)", "lacZ reporter activity": 0}
{"Sequence": "B5 (TRAF5 RING domain)", "lacZ reporter activity": 0}
{"Sequence": "B6 (TRIML1 RING domain)", "lacZ reporter activity": 0}
{"Sequence": "B7 (SH3RF2 RING domain)", "lacZ reporter activity": 0}
{"Sequence": "B8 (RNF208 RING domain)", "lacZ reporter activity": 0}
{"Sequence": "ASLPTSEEDLCPICYAHPISAVFQPCGHKSCKACINQHLMNNKDCFFCKTTIVSVEDWE (RNF123 RING domain (UniProt Q5XPI4))", "lacZ reporter activity": 0}
{"Sequence": "GAAPGPEAAECLVCSELALLVLFSPCQHRTVCEECARRMKKCIRCQVVVSKKLRPD (MIB2 RING domain (UniProt Q96AX9))", "lacZ reporter activity": 0}
{"Sequence": "B9 (RC3H1 RING domain)", "lacZ reporter activity": 0}
{"Sequence": "B10 (NEURL1 RING domain)", "lacZ reporter activity": 2580}
{"data": "Study 5", "target": "ABI1, truncated, D143A, DHFR fusion (Arabidopsis thaliana)", "method": "DHFR PCA, deep sequencing", "matrix": "yeast", "setting": "methotrexate growth selection, single substitutions", "together with": "(+)-ABA 0 µM", "relative to": "wild-type fitted maximum", "reading": "higher = stronger binding", "parent": "PYL1, truncated, DHFR fusion (Arabidopsis thaliana); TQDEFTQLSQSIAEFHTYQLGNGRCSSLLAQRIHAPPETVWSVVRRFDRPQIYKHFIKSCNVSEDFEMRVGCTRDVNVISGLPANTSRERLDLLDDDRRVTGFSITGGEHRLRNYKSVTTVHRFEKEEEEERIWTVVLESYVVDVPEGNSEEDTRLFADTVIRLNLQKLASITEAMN"}
{"Variant": "E127A", "relative binding score [%]": 30.9}
{"Variant": "R69A", "relative binding score [%]": 18.9}
{"Variant": "Y115M", "relative binding score [%]": 4.57}
{"Variant": "L91I", "relative binding score [%]": 18.6}
{"Variant": "S117H", "relative binding score [%]": 25.7}
{"Variant": "Y115G", "relative binding score [%]": 3.96}
{"Variant": "C60W", "relative binding score [%]": -6.34}
{"Variant": "L138P", "relative binding score [%]": 1.79}
{"Variant": "R98Y", "relative binding score [%]": -2.08}
{"Variant": "E109C", "relative binding score [%]": -0.255}
{"Variant": "R132H", "relative binding score [%]": 25}
{"Variant": "S104L", "relative binding score [%]": -5.31}
{"Variant": "L28Y", "relative binding score [%]": 3.53}
{"note": "Some of these lines once more (study 5):"}
{"Variant": "C60W", "relative binding score [%]": -6.34}
{"Variant": "R132H", "relative binding score [%]": 25}
{"Variant": "E109C", "relative binding score [%]": -0.255}
{"Variant": "R98Y", "relative binding score [%]": -2.08}
{"Variant": "L138P", "relative binding score [%]": 1.79}
{"Variant": "E127A", "relative binding score [%]": 30.9}
{"Variant": "L28Y", "relative binding score [%]": 3.53}
